Measurements gathered from unrelated publications.
Protocols differ between the studies behind these lines.
Target: Prostaglandin G/H synthase 1 (PTGS1, Ovis aries, UniProt P05979)
UniProt P05979, sequence (whole entry, looked up): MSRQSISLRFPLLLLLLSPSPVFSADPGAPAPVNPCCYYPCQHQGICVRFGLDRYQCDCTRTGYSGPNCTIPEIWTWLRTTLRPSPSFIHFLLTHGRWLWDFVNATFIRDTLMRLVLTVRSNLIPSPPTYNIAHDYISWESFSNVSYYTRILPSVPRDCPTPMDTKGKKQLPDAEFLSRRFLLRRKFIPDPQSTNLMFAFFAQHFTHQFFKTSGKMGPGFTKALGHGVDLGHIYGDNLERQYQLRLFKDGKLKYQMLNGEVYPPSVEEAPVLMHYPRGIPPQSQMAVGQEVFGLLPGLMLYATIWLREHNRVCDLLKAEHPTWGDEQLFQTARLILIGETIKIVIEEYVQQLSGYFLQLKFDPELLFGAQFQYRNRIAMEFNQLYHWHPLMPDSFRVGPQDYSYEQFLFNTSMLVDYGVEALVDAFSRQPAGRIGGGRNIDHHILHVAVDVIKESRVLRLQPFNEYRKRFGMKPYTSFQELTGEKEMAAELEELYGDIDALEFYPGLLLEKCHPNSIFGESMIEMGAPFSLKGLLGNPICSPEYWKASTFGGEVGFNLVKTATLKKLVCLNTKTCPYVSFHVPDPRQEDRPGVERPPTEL
Observed: enzyme activity

Structure (SMILES)	action	technique	pH	IC50
COc1ccc(C(=O)CCc2cc(C(CCc3ccc(O)cc3OC)c3ccc(O)cc3)c(O)cc2OC)cc1 (racemic)	–	purified enzyme	–	> 10 µM
O=c1[nH]c(=S)[nH]c2c1C(c1cc(/N=N/c3ccc(Br)cc3)ccc1O)c1c([nH]c(=S)[nH]c1=O)N2	inhibitor	ELISA	–	9.2 µM
Fc1ccc(Nc2c(Cl)cccc2Cl)c(Cc2nnn[nH]2)c1	inhibitor	fluorescence	–	> 100 µM
Cc1nc(N(C)C)nc(C)c1O	inhibitor	–	pH 8	10 µM
NS(=O)(=O)Cc1ccccc1Nc1c(Cl)cccc1Cl	inhibitor	fluorescence	–	> 100 µM
Brc1ccc(/N=c2\oc3ccccc3cc2-c2ccccc2)cc1	inhibitor	–	–	0.0101 µM
CSc1nn(-c2ccccc2)c(NC(=O)/C(C#N)=C(/Nc2ccc(C)cc2)Nc2c(C)n(C)n(-c3ccccc3)c2=O)c1C#N	inhibitor	–	–	12.5 µM
COc1ccc(/N=N/c2ccc(O)c(C3c4c([nH]c(=S)[nH]c4=O)Nc4[nH]c(=S)[nH]c(=O)c43)c2)cc1	inhibitor	ELISA	–	6.86 µM
Cc1cccc(/N=c2\oc3ccccc3cc2-c2ccccc2)c1	inhibitor	–	–	0.0084 µM
COc1ccc(/N=N/c2ccc(O)c(C3c4c([nH]c(=S)[nH]c4=O)Nc4[nH]c(=S)[nH]c(=O)c43)c2)cc1OC	inhibitor	ELISA	–	4 µM
C=Cc1ccc(/N=c2\oc3ccccc3cc2-c2ccccc2)cc1	inhibitor	–	–	0.0137 µM
O=C(O)C(F)(F)c1ccccc1Nc1c(Cl)cccc1Cl	inhibitor	fluorescence	–	> 100 µM
Clc1ccc(/N=c2\oc3ccccc3cc2-c2ccccc2)cc1	inhibitor	–	–	0.0109 µM
C[C@H]1CCCC[C@@H]1NC(=O)/C(C#N)=C/c1cn(-c2ccccc2)nc1-c1cccs1	inhibitor	absorbance	–	15.2 µM

Some of these lines once more:
Structure (SMILES)	action	technique	pH	IC50
Cc1cccc(/N=c2\oc3ccccc3cc2-c2ccccc2)c1	inhibitor	–	–	0.0084 µM
